Published values of several laboratories.
Every numbered part comes from another study and shows a few of its results, in no order.

Block 1
Target: Ras GTPase-activating protein-binding protein 1, RRM domain (G3BP1, Homo sapiens, UniProt Q13283)
UniProt Q13283, sequence (whole entry, looked up): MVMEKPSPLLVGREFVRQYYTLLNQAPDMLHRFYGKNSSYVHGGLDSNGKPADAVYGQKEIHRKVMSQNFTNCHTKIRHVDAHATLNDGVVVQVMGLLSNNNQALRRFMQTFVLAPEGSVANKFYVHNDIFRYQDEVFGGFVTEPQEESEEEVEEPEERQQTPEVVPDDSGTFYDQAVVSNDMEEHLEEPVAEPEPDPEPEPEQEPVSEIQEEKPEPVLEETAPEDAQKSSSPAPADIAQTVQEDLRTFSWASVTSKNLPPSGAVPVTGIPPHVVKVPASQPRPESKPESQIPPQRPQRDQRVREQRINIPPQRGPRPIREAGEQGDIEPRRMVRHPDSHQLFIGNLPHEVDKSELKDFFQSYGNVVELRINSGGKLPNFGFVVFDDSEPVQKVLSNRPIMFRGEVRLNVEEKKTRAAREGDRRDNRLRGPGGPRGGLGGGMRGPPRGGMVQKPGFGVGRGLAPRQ
Method: RNA Bind-n-Seq
Form: RNA
Sample: in vitro
Tested at: 1 µM
Setting: whole 134-nt RNA, ends assumed
With: 150 mM KCl
Reference: input library
Direction: higher = stronger binding
Shared flanks, not repeated: GGGAGUUCUACAGUCCGACGAUC … UGGAAUUCUCGGGUGUCAAGG
Sequence | log2 enrichment
CACAGACAACACGCACCCACACAGACACAGAGGGAAGGGGUUGGGAUGGGGACAGGGUGCACAGGAGGGCGGGGUAGGACCCCAGCCCCU | 0.0466
UCUUGUAUGACUUAACCCCUGUUUCUAAUACAGGGGCCGCUCUCCUCAGCCUCCUGCUGAAGAGGAUGAAGAUGACUUUGAUGAUACCCU | -0.124
CAAGUCCUGUGCUACACAUCGUAUGUACCGAAUCGGAAAAGGAAAAGGAAAAGGGGAAAGUAUUAUGUUACGCCGUUCGGAUCUGCACUU | -0.167
GCAGGAAGUAAAAACAAAUGGAAAUGCUUCGGAUAGUGGCAGGGGUGGGGGUUGCUAAGGAAAGGGUGAGAUGGGAGUGGGUAAAGAGUU | 1.42
UCCUGUGCUACACAUCGUAUGUACCGAAUCGGUUUUUUGGUUUUUUGGGGUUUUUUGGGGAAAGUAUUAUGUUACGCCGUUCGGAUCUGC | -0.253
AGUCCUGUGCUACACAUCGUAUGUACCGAAUCAAAUUUUUUUAAAUUUAAAUUUAAAAAAGUAUUAUGUUACGCCGUUCGGAUCUGCACU | -0.913
AAGUCCUGUGCUACACAUCGUAUGUACCGAAUCGGUUUUGGGUUUUGGGUUUUGGGAAAGUAUUAUGUUACGCCGUUCGGAUCUGCACUU | -0.234
UGGUCAUGGGAUGGAGAACCAGUUCUUCCCUUAUAUCUUCACCAUAUGACUAUUGACCCUGUCUUAGGCUGCUCCCAGGCCGUUCCAUUG | 0.0973
GUCCUGUGCUACACAUCGUAUGUACCGAAUCAAACCCCCAAACCCAAACCCCCCCAAAAAAGUAUUAUGUUACGCCGUUCGGAUCUGCAC | 0.0207
UGGCCCUGGUGGCAUGCGGGGAGGAAGAGGUGGCCUCAUGGAUUGUGGUGGUCCCGGUGGAAUGUUCAGAGGUGGCCGUGGUGGAGACAG | 0.98
GUCCUGUGCUACACAUCGUAUGUACCGAAUCGGGUUUUUUUGGGUUUUUGGGUUUGGGAAAGUAUUAUGUUACGCCGUUCGGAUCUGCAC | -0.144
UCCUGUGCUACACAUCGUAUGUACCGAAUCGGGUUUUUUUGGGUUUUUGGGUUUUUGGGAAAGUAUUAUGUUACGCCGUUCGGAUCUGCA | -0.0916
UGUACUCGGAAGUUUCACUUACCAUCGACCACUCUCUGAUUCCGGAGGAGAGGCUCUCGCCCACCCCAUCCAUGCAGGAUGGGCUCGACC | -0.196
CUGUGCUACACAUCGUAUGUACCGAAUCAAAUUUUUUUAAACCCCCCCAAAUUUUUUUAAAAAAGUAUUAUGUUACGCCGUUCGGAUCUG | -0.986

Block 2
Target: Histone acetyltransferase KAT6A, both winged helices, GST fusion (KAT6A, Homo sapiens, UniProt Q92794, residues 1-181)
Method: protein binding microarray
Form: double-stranded DNA, one strand shown
Sample: in vitro
Tested at: not given
Setting: 8-mer, flanks averaged, mean of 2 arrays, mostly near background
Reference: not given
Direction: higher = stronger binding
Target sequence (chain): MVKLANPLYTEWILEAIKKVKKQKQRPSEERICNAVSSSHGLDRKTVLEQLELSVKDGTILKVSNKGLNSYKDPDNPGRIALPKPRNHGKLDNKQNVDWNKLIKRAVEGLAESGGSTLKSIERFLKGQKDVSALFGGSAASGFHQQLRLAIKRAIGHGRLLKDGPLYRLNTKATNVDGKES
Sequence | E-score
CCCTGGGA | -0.0816
CTAAATCC | -0.0293
ACCTTCAT | -0.0554
CAGTTAGG | -0.25
CAGTTCGA | -0.0724
AACGGCGC | 0.275
ACTTCCCT | -0.242
AGGTGCGG | 0.128
GCCTCAGC | -0.0201
GCAGCTCC | -0.0628
TCTGGCCA | -0.225
ACGAATTG | -0.15
CTCCGAAC | 0.206
GTGTCTGA | 0.0328
ATACGGAG | 0.137
CGTACCGA | 0.0785
ACTTAGGA | -0.206
AGAGCGAG | 0.0459
GGATCACC | -0.0801
AGTTCCGC | 0.237
CGCCATAG | 0.105

Block 3
Target: RNA binding protein fox-1 homolog 2, RRM domain, GST-SBP tag (RBFOX2, Homo sapiens, UniProt O43251-10, residues 100-194)
Method: RNA Bind-n-Seq
Form: RNA
Sample: in vitro
Tested at: 365 nM
Setting: natural RNA segment, single round, ends assumed
Reference: no-protein control
Direction: higher = stronger binding
Shared flanks, not repeated: GGGAGUUCUACAGUCCGACGAUC … UGGAAUUCUCGGGUGCCAA
Residues (chain): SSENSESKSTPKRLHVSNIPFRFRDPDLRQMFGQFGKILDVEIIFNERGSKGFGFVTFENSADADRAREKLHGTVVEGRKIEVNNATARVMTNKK
Sequence | RBNS enrichment (R)
AAUACAUUGUAGGAAAUCUUCAUAAUUGGAGAAAGUUCUGCAGCAUGGCUUUUUACGUCUGUAAAUAAAUAAUUUUAGAACAGCCUUUUUUUCUUCCAUAAACUACUAUU | 0.681
AGCAACUAGUUCACUCAUAGUCUACAGUUUUAUGUUCUUUUGGCUUAAAGUUAAAAGAAAAUACAGAAUACCAGCAGAACUUGAUUAUUGUUUUCUGUCCAAACUUCUUA | 0.267
CUGUCAUUCCCAGCUCUGUGACCUACUGCUUGGUACUAAAAAGGAGUUUUCUUCCAAAAGCACUGUUUCCAGUCUGAGUAGGAGCUACCAGCCUGUGGCAAUCAGCAGGG | 0.352
UGGCGGCCGGGGUGGGGGUUGAGGACGUGGGGUGAGGGGAGGCAGCUGCAGACAUGAGCCUUCCCGCCUCAACACAUCCUCCGUAGAAGGGACCCCCUCCCUGCUCCUGG | 0.76
AAACACAUUAAGUUGAUUGAGUUGGACAUACGGUUCCUGAAGUAUCUUGAUUUGUGUUUUUUUUUUUUUAAUGUUUUAUUUCAAAAUGAUCUAUUUCAGUAAAUCUCUUG | 0.897
ACCCCAGAAACUCCAGCCAGCACCACCGACACAACCAGACCAGCGCCACACCGCACUGAGGACUCCAAGGCCUUCGCGGGACCAUGCCGGCCGGGCUGCCUCGUCUUACU | 0.76
AUAAAGACUUUCAAUCAUUUCAUUUUCAGACAACUGAAAUUUUGUUUAGUAUGUGAAUUCUUUUUUUGAAAUGUAUAGUGAAUAGGAUGUUGCACUGGUGGCAAUUCAUC | 0.554
GCCAAACCAAAGACAGAUUUGCUUAACCAACAGACGGGUGCUGACCCAUCCAGAACCACGUGCACGAGUUUUUACCUAGCUGGUUGUUUCCGAGGACCAGGCACUCGAUC | 0.717
GGGGCCUGAUGGACACCUUUCCCGGGCGUCUGCAGCUGCCCUGCCCGUGCCCGCCUGCAGUGGUUGGAGACGGGAGUGGCCCUUCGGCUCCCGAGCUCCCUCUGGGGACG | 0.331
GUAGACAGUGUUCAUUUGAUUUUCUACAGAAAUAAUAUAAAUUAUUCUUUAGGUUUAAAAAAGAGCACUCAUAAUGCAAUAUGUGAAUAAUCAGUGAGGUUGAUUUUUCU | 1.03
CGCCGCUGUCUCCUCCUCUCCAUCCCGCCCAGCCAUGUGACACCGGCUCUUGUAGAGGGCAUCCCCAGAUGUCCAAACCCUUUCCUGUGUACUGUUGAAAGCAUUGUUCU | 0.482
GCAGGCAGGGCAAAGGUCAAGACUGUGGUAUUGGGGUCUUUUGGCUCUGAAGGAUCCUGGAACCACUGAUUUUGGUUUAUUCCCUCCAGGGUCUAAAGAGAACAAGAGGU | 0.472

Block 4
Target: Hepatocyte nuclear factor 3-alpha (Foxa1, Mus musculus, UniProt P35582, residues 1-468, full length assumed)
Method: EMSA with sequencing
Form: double-stranded DNA, one strand shown
Sample: in vitro
Tested at: 10 and 20 nM
Setting: whole designed probe, mean of two concentrations, ends assumed
Reference: negative control set to 0
Direction: higher = stronger binding
Shared flanks, not repeated: GTGAGCGGTGCCCATTGATGGGGAAC … TTTCACTGGGATCGTGGGGAC
Construct (chain): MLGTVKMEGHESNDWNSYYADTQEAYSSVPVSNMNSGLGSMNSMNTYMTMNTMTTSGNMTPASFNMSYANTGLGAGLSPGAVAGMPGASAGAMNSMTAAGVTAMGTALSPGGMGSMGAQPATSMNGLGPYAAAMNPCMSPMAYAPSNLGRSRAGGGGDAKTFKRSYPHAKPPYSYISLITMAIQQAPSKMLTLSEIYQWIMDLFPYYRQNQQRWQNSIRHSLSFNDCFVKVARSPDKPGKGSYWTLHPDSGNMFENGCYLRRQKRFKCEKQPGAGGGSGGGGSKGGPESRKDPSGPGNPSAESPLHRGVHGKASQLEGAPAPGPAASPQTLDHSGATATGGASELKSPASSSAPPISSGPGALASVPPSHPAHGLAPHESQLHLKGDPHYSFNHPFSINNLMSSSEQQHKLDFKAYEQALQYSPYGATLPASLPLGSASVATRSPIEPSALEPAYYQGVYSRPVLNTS
Sequence | normalised bound fraction
ATAGTGGTGAGCTTCTCTATGTTGTGTCTACATGGCTATGATGACAAGTGGAGTTATACGCCTGTGCTCTATACTCACTGAGTCACGAAGAATGTAAACATCCTACCTCGGCCTATCCTTGACCAAAGCACAGCCATGTTCCTTACACTCTGGGTCCCCACGGTTCAGACAGAAGTCTCTCTGACAGACAACA | 0.291 ratio
ATGAAAAAGGATAGGAAGAAAGGGAGGAAGAGGAGGGGGACAGAGAGGAAGTAGGAAGGGAGAGCGATAAAGGAAGGAAAGAAGATAAATTCTGTAAACAGCCCCACCCAGACTGGCATAGCACAACCTGGAATGGACTATTTAAGTCCCAAACATGATGTTAAGAGAATAATTCAGATTTCTAGGAATGCAC | -0.00852 ratio
CAGCCTGCAGTGCGCTCAGTTAAACAATTCCAAATCAAGGAATTTTGTCTGATACAAGGAATTTGGCGTCTGTTTTCCTAACATGCACCCTGGGTAAATAGACTGGGGCGGCGGGCCATTTCCTGACCCAGCTGAAGCCAATATGCATTGCGGCCACAAGGTGGCGCGTCTGGGCCTGGCAAACCCCTGTGCT | 0.24 ratio
ATCTTCCCCCTCTTCCTTGCCCCACCAGCTCACCTTCCCGGGTTGTTTACTTTGAGCAAAGTAAACAAAGCCGGCATTCGTTAACCCTCTTCACGCGCATACTGCCAAAGTAAACAGATGAATCATGGTCCTTTGGCGACGCCAGGCTCCGGGAGAGCAAAGCACCGTGTCAGGGCCATGATCCGGGGTGGCC | 0.569 ratio
TTAAAAAGCACATATGCTGCTTGCATCACTATTTGATCCTTAACAGTCTAGGGACACGTTGCCATTTTCAAAGTAATACCATTTCCCATTCCTATGTTTACTTTGTACATGAAGTATAGTGGTCAACTGCCATGGGTCCATAAAGACTGGGTATTACAGTAAGATCATACACATAAGGACTTCTTCCAGGACA | 0.484 ratio
ATCTTCCCCCTCTTCCTTGCCCCACCAGCTCACCTTCCCGGGTATCTGCAAATAAGTATTTATTTTCAAGCCGGCATTCGTTAACCCTCTTCACGCGCATACTGCCAAAGTAAACAGATGAATCATGGTCCTTTGGCGACGCCAGGCTCCGGGAGAGCAAAGCACCGTGTCAGGGCCATGATCCGGGGTGGCC | 0.449 ratio
ATCTTCCCCCTCTTCCTTGCCCCACCAGCTCACCTACGGGGGTTATTTGCAGATAGGAAAATAAATAAAGCCGGCATTCGTTAACCCTCTTCACGCGCATACTGCTGTTTGCTCTGGATGAATCATGGTCCTTTGGCGACGCCAGGCTCCGGGAGAGCAAAGCACCGTGTCAGGGCCATGATCCGGGCTCGCC | 0.335 ratio
TTCTCCTTCACTCTCCCTGGTACAACTTGGCAGAGGATGGGGAGAACTGGGAAGAAGTGGATGCATTGAGTAGATCAAGCTTTTCCTCTTCATGTTTACTTTATATGATTTTAATTTTGTAACCTTGTTGTAGGACATAAAAAATGAATGACAGTGGACTTAGCTTTTATTTATAACATTGAAATCCTTAAAG | 0.418 ratio

A few entries again (block 3):
Sequence | RBNS enrichment (R)
AGCAACUAGUUCACUCAUAGUCUACAGUUUUAUGUUCUUUUGGCUUAAAGUUAAAAGAAAAUACAGAAUACCAGCAGAACUUGAUUAUUGUUUUCUGUCCAAACUUCUUA | 0.267
CUGUCAUUCCCAGCUCUGUGACCUACUGCUUGGUACUAAAAAGGAGUUUUCUUCCAAAAGCACUGUUUCCAGUCUGAGUAGGAGCUACCAGCCUGUGGCAAUCAGCAGGG | 0.352
UGGCGGCCGGGGUGGGGGUUGAGGACGUGGGGUGAGGGGAGGCAGCUGCAGACAUGAGCCUUCCCGCCUCAACACAUCCUCCGUAGAAGGGACCCCCUCCCUGCUCCUGG | 0.76
AAACACAUUAAGUUGAUUGAGUUGGACAUACGGUUCCUGAAGUAUCUUGAUUUGUGUUUUUUUUUUUUUAAUGUUUUAUUUCAAAAUGAUCUAUUUCAGUAAAUCUCUUG | 0.897
ACCCCAGAAACUCCAGCCAGCACCACCGACACAACCAGACCAGCGCCACACCGCACUGAGGACUCCAAGGCCUUCGCGGGACCAUGCCGGCCGGGCUGCCUCGUCUUACU | 0.76
